# Results from different studies.
# A part holds a random share of what one study measured. Substitutions count along the parent as printed.
# Chain of UniProt Q9UQM7 (whole entry, looked up): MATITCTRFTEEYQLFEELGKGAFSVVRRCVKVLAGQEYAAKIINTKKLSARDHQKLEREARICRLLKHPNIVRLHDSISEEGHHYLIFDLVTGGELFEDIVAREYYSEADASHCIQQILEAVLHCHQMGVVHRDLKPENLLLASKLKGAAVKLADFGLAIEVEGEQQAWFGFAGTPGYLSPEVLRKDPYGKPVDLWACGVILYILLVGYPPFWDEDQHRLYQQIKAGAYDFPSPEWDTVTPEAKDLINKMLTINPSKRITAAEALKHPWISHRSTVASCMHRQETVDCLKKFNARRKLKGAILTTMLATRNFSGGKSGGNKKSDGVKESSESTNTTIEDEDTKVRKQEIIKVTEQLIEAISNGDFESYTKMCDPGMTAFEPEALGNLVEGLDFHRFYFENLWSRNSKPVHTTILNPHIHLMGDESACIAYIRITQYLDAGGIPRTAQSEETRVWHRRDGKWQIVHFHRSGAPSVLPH

# Series 1 — target: inorganic phosphate, free oxyanion; method: microfluidic competitive inhibition; medium: in vitro, cell-free expressed; tested at: not given; direction: lower = stronger binding
# Setting: derived from inhibition constants, unchanged parent 615000 nM
# Starting sequence: PafA, mature enzyme, eGFP fusion (Elizabethkingia meningoseptica, UniProt Q9KJX5); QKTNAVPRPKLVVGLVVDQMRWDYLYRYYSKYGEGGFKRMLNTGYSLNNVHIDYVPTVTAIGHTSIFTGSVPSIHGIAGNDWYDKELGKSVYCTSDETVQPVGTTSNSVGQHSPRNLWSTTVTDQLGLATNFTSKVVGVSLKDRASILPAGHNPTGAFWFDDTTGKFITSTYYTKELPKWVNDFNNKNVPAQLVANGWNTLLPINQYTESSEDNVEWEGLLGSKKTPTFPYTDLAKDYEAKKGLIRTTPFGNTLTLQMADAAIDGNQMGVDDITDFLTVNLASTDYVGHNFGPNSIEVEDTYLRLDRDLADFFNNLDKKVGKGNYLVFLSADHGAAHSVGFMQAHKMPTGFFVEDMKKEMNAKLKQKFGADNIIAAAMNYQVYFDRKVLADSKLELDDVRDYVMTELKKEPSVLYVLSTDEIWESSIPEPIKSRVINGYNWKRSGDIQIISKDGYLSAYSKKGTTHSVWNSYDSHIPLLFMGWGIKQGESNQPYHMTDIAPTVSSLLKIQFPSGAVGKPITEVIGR
Variant,phosphate dissociation constant [µM]
E176G,544
T274G,526
M40V,809
D446V,718
N182G,576
E522G,665
I245V,552
T169G,536

# Series 2 — target: CCNE2, cyclin fold, Cln2 fusion (human); method: yeast growth competition, sequencing; medium: yeast; setting: strong parent motif; reference: not given; direction: higher = stronger binding; starting sequence: viral docking peptide; KKVKRRLFETREL
Variant,normalised enrichment score
K4A,2.47
E9A,2.85
K2A,4.2
R6A,1.74
R5A L7A,0.925
R5A,0.737
R11A,5.13
L13A,4.17

# Other studies, line by line
Structure (SMILES),target or system,test,test system,setting,how to read,measurement,value
CC(=O)C=Cc1ccccc1,"Calcium/calmodulin-dependent protein kinase type II subunit alpha (CAMK2A, Homo sapiens, UniProt Q9UQM7)","enzyme activity, inhibitor",,10 µM,,inhibition,-28%
Cc1cc(C)nc(N=C(N)NCCc2cnc[nH]2)n1,,,"mouse, microsomes or S9","2 µM, 0.5 h",,remaining compound,74.1%
C[C@]12CC[C@H](O)C[C@@H]1CC[C@@H]1[C@@H]2CC[C@]2(C)C(=O)CC[C@@H]12,mouse MPNST tumor cells,"high-content nuclear imaging, refers to: cell number",,"10 µM, 12 h, mean of 2 replicates","reference: plate mean, higher = more cells",nuclei count,0.963 z-score

# Excerpt of the above (series 1):
Variant,phosphate dissociation constant [µM]
T274G,526
M40V,809
